Published values from different studies.
Protocols differ between the studies behind these lines. ± gives the spread as reported.

Substance = CC1=C(C(=O)O)C(c2ccccc2Cl)NC(=S)N1 (stereo not drawn); assay = carotid artery cannulation; system = male Wistar rats, anaesthetised; setting = 0.3 mL, 3 h; measurement = mean arterial pressure; result = 24.8 ± 0.94 mm Hg
Substance = c1ccc(CCN2CCCCC2)cc1; tested on = GABA receptor, rat; assay = binding; system = rat brain; setting = together with: [3H]GABA 5 nM; measurement = Ki; result = > 10 µM
Substance = CC[C@H](C)[C@H](NC(=O)CNC(=O)[C@H](Cc1c[nH]c2ccccc12)NC(=O)CNC(C)=O)C(=O)N[C@@H](CCCCN)C(N)=O; assay = DSC; system = SOPC/cholesterol 6/4 bilayers; setting = 15 mol%, pH 7.40; measurement = transition enthalpy; result = 0.9 kcal/mol
Substance = C[C@H]1CNCCc2ccc(Cl)cc21; system = Sprague-Dawley rat, male, plasma; setting = subcutaneous, 1 mg/kg, 15 min; measurement = plasma concentration; result = 34.4 ± 3.19 ng/mL
Substance = CC(C)C[C@H](NC(=O)[C@@H](NC(=O)[C@H](Cc1ccc(O)cc1)NC(=O)[C@@H](NC(=O)[C@H](CC(C)C)NC(=O)[C@H](Cc1c[nH]cn1)NC(=O)[C@H](C)NC(=O)[C@H](CC(C)C)NC(=O)[C@@H](N)CCC(N)=O)C(C)C)C(C)C)C(=O)O; system = PBMC, human, HSV-1 seropositive, HLA-A*0201+; setting = 10 µg/mL, 72 h; measurement = IFN-γ+ CD8+ T cells; result = ≤ 4.3%
Substance = CC[C@H](C)[C@H](NC(=O)[C@H](CCSC)NC(=O)[C@H](CO)NC(=O)[C@H](Cc1ccccc1)NC(=O)[C@H](CO)NC(=O)[C@H](CCCCN)NC(=O)[C@H](CC(=O)O)NC(=O)[C@H](CC(C)C)NC(=O)[C@@H](N)CCCCN)C(=O)N[C@@H](CCCCN)C(=O)N[C@@H](CCC(=O)O)C(=O)NCC(=O)N[C@@H](CC(=O)O)C(=O)N[C@@H](Cc1ccc(O)cc1)C(=O)N[C@@H](CC(N)=O)C(=O)N1CCC[C@H]1C(=O)N[C@@H](CC(C)C)C(=O)N[C@@H](Cc1ccccc1)C(=O)N[C@H](C(=O)N1CCC[C@H]1C(=O)N[C@H](C(=O)N[C@@H](C)C(=O)N[C@H](C(=O)N[C@@H](CCSC)C(=O)N[C@H](C(=O)N[C@H](C(=O)N[C@@H](C)C(=O)N[C@@H](Cc1ccccc1)C(=O)N[C@@H](CO)C(=O)NCC(=O)N[C@@H](CC(C)C)C(=O)N[C@@H](C)C(=O)N[C@@H](Cc1ccccc1)C(=O)N[C@H](C(=O)N[C@H](C(=O)N[C@@H](Cc1c[nH]c2ccccc12)C(=O)N[C@@H](CC(C)C)C(=O)N[C@@H](C)C(=O)N[C@@H](CCCNC(=N)N)C(=O)N[C@@H](CCCNC(=N)N)C(=O)N[C@@H](CC(C)C)C(=O)N[C@@H](CCCCN)C(=O)N[C@@H](CCCCN)C(=O)NCC(=O)N[C@@H](CCCCN)C(=O)N[C@@H](CCCCN)C(=O)N[C@@H](CO)C(=O)N[C@@H](CCCCN)C(=O)N[C@@H](CCCNC(=N)N)C(=O)N[C@@H](CSC1CC(=O)N(c2ccc(-c3c4ccc(N(C)C)cc4[o+]c4cc(N(C)C)ccc34)c(C(=O)[O-])c2)C1=O)C(=O)N[C@@H](CCSC)C(=O)N[C@@H](CC(N)=O)C(=O)N[C@@H](CC(=O)O)C(=O)N1CCC[C@H]1C(=O)N[C@@H](Cc1ccc(O)cc1)C(=O)O)[C@@H](C)CC)[C@@H](C)CC)[C@@H](C)O)C(C)C)C(C)C)C(C)C)[C@@H](C)CC (stereo partly drawn); assay = iodide collisional quenching; system = 15% POPS versus POPC liposomes; setting = concentration not given, pH 7.4, together with: NaI 150 mM, NaNO3 up to 800 mM; measurement = TMR fluorescence difference; result = decreased
Substance = CNC(C)Cc1ccc2c(c1)OCO2 (racemic); assay = Drug Effects Questionnaire, item: Feel High; system = human; setting = oral, 0.75 mg/kg, mean over session, unit not given; scale = reference: pre-dose baseline; measurement = subjective drug effect rating; result = 20.6
Substance = C[C@H](NC(=O)Cc1cc(F)cc(F)c1)C(=O)N[C@H]1N=C(c2ccccc2)c2ccccc2N(C)C1=O; tested on = γ-secretase; assay = inhibitor, microdialysis; system = J20 hAPP transgenic mice, 24 months, hippocampal interstitial fluid; setting = intraperitoneal, 3 mg/kg; scale = reference: pre-injection level; measurement = ISF Aβ42 reduction; result = ~20%
Substance = CC(C)C[C@H](NC(=O)[C@H](CC(C)C)NC(=O)[C@H](CCCCN)NC(=O)[C@H](C)NC(=O)[C@H](CC(C)C)NC(=O)[C@H](CCCCN)NC(=O)[C@H](CCCCN)NC(=O)[C@H](CC(C)C)NC(=O)[C@H](C)NC(=O)[C@H](CCCCN)NC(=O)[C@H](CCCCN)NC(=O)[C@H](Cc1ccc(O)cc1)NC(=O)[C@@H](N)CCCCN)C(N)=O; assay = carboxyfluorescein release; system = EYPC vesicles; setting = 10 µg/mL, 250 s, pH 7.4, 25 °C; scale = reference: Triton X-100; measurement = leakage; result = 52%
Substance = QPRWSYYDSFSAV; assay = IFN-γ release, ELISPOT; system = peptide, splenocytes, BALB/c mouse immunised; measurement = EC50; result = < 0.0001 µM
Substance = O=C1/C(=N\NC(=S)NN=Cc2ccccc2)c2ccccc2N1Cc1ccccc1; tested on = influenza A virus; assay = cytopathic effect, MTS; system = MDCK, H1N1; measurement = EC50; result = > 100 µM
Substance = CC(C)OC(=O)[C@H](CCC(=O)C=[N+]=[N-])NC(=O)OC(OC(=O)C(C)(C)C)c1ccccc1 (stereo partly drawn); system = mouse flank MPNST model, tumour; setting = dose not given, 14 days; scale = reference: vehicle; measurement = Ki67 or cleaved caspase-3; result = no effect
Substance = CC(NC(C)(C)C)C(=O)c1cccc(Cl)c1 (stereo not drawn); assay = nicotine conditioned place preference, antagonist; system = mouse; setting = sc, together with: nicotine 0.5 mg/kg sc; measurement = ED50; result = 0.35 mg/kg
Substance = CC(C)[C@H](O)C(=O)N[C@H]1Cc2ccc3c(c2)[C@]2(C4=C(c5nc(CO)co5)N=C(O4)[C@H](C(C)(C)C)NC1=O)c1cc(F)ccc1N[C@@H]2O3; assay = tumour volume; system = mice, MIA PaCa-2 xenograft; scale = reference: vehicle; measurement = minimum effective dose; result = 1.13 mg/m²
Substance = CNC(=O)[C@@H](NC(=O)c1cc(OCC2(C)COC2)c(C2CC2)cn1)C(C)(C)C; assay = immunostaining; system = SOD1 G93A mouse, spinal cord; setting = ip, 30 mg/kg once daily, P25 to P35; measurement = IBA1-positive area; result = 9.5 ± 0.3%
Substance = CN[C@@](C)(C[18F])C(=O)O; tested on = SK-OV-3 tumour model; system = host not given, pancreas; setting = 15 min, tumour-bearing; measurement = tracer uptake; result = 32 %ID/g
Substance = CC1=C(C(=O)O)C(c2ccccc2C#N)NC(=S)N1 (stereo not drawn); assay = carotid artery cannulation; system = male Wistar rats, anaesthetised; setting = 0.3 mL, 3 h; measurement = mean arterial pressure; result = 24.7 ± 1.25 mm Hg
Substance = CC(C)c1ccc2c(c1)CC[C@H]1[C@](C)(CN)CCC[C@]21C; tested on = WM-115; assay = cell growth or viability, MTS; setting = 48 h; measurement = IC50; result = 3.17 µM
Substance = c1cc2ccc3cccc4ccc(c1)c2c34; assay = inducer; system = female rat, liver; setting = oral, 1 mg, 24 h, sesame oil vehicle; measurement = menadione reductase activity; result = 15.7 enzyme units
Substance = NC[C@H]1O[C@H](O[C@H]2[C@H](O)[C@@H](O[C@H]3O[C@H](CO)[C@@H](O)[C@H](N)[C@H]3O)[C@H](N)C[C@@H]2N)[C@H](N)C[C@@H]1O; assay = luciferase synthesis, inhibitor, coupled transcription-translation; system = M. smegmatis 70S ribosomes, Leishmania/Trypanosoma hybrid; setting = 60 min, 37 °C; measurement = IC50; result = 60 µM
Substance = Cc1nn(-c2ccccc2)c(NC(=O)NS(=O)(=O)c2ccc(Cl)cc2)c1C#N; assay = antagonist, von Frey; system = mouse; setting = intrathecal, dose not given, together with: capsaicin; measurement = mechanical allodynia; result = no effect
